Measurements from different studies.
Protocols differ between the studies behind these lines. ± marks the error that the study gave.

SMILES = Cc1sc2c(c1C)C(c1ccc(Cl)cc1)=N[C@@H](CC(=O)NCCCCCCCCC(=O)N1CCN(C(=O)c3cc(Cc4n[nH]c(=O)c5ccccc45)ccc3F)CC1)c1nnc(C)n1-2; target = BRD4/PARP1 (Homo sapiens, UniProt O60885+P09874); assay = co-immunoprecipitation; system = HEK293T expressing FLAG-BRD4; setting = 1 h; measurement = concentration for maximal PARP1-BRD4 interaction; result = 50 nM
SMILES = Cc1cc(-c2ccc(/N=N/c3ccc4c(S(=O)(=O)O)cc(S(=O)(=O)O)c(N)c4c3O)c(C)c2)ccc1/N=N/c1ccc2c(S(=O)(=O)O)cc(S(=O)(=O)O)c(N)c2c1O; target = Neutrophil elastase (ELANE, Homo sapiens, UniProt P08246); assay = enzyme activity, inhibitor, chromogenic substrate hydrolysis; setting = pH 7.4, 37 °C, 100 mM NaCl, with: substrate S-1384; measurement = Hill slope; result = 2 ± 0.2
SMILES = Cc1ccc(C(C)C)cc1.[C-]#[O+].[C-]#[O+].[C-]#[O+].[Cl-].[Cl-].[Cl-].[Re+].[Ru+2].c1cnc(-c2ncccn2)nc1; target = Albumin (ALB, Homo sapiens, UniProt P02768); assay = tryptophan fluorescence quenching; measurement = binding constant; result = 28800 M⁻¹
SMILES = CCC(=C(c1ccc(O)cc1)c1ccc(OCCN(C)CCOCCOCCOCCOCCOCCN(C)CCOc2ccc(C(=C(CC)c3ccccc3)c3ccc(O)cc3)cc2)cc1)c1ccccc1 (mixture of isomers); target = ESR2 (Homo sapiens, UniProt Q92731); assay = radioligand competition binding; setting = concentration not given, Z-E/E isomer form, with: [3H]estradiol tracer; scale = relative to: estradiol; measurement = relative binding affinity; result = 3.2 ± 1%
SMILES = C[C@H](CCC(=O)N[C@@H](CCC(=O)Nc1ccc(F)nc1)C(=O)O)[C@H]1CC[C@H]2[C@@H]3[C@H](O)C[C@@H]4C[C@H](O)CC[C@]4(C)[C@H]3CC[C@]12C; target = SLC10A2 (Homo sapiens, UniProt Q12908); assay = transport efficiency, substrate, LC-MS/MS; system = ASBT-MDCK; measurement = normalized Jmax/Kt; result = 0.0262 µM⁻¹
SMILES = Nc1ncc(-c2nc(N3CCOCC3)nc(N3CCN(C(=O)CCC(=O)NCCCCCCCCCNc4cccc5c4C(=O)N(C4CCC(=O)NC4=O)C5=O)CC3)n2)c(C(F)F)n1 (centres unmarked); target = PIK3CA (Homo sapiens, UniProt P42336, E545K); assay = degrader, western blot; system = MCF7; setting = concentration not given, 48 h after washout; scale = relative to: untreated; measurement = protein level recovery; result = 20 to 30%
SMILES = O=C1c2ccc(O)cc2OC(c2ccc(O)cc2)C1C1C(=O)c2ccc(O)cc2OC1c1ccc(O)cc1 (centres unmarked); target = PRXC1A (Armoracia rusticana, UniProt P00433); assay = oxidation, substrate; measurement = Vmax; result = 165 ± 4.7 µmol/min/mg
SMILES = CC(C)=CCc1c(O)cc(O)c2c1O[C@H](c1ccccc1)[C@@H](O)C2=O; target = PTPN1 (Homo sapiens, UniProt P18031); assay = fluorescence quenching; setting = concentration not given; measurement = binding site number; result = 0.99
SMILES = Cc1ncc(C[n+]2cccc(CCO)c2C)c(N)n1; target = nicotinamide riboside transporter PnuT (Shewanella woodyi, UniProt B1KPL9); assay = isothermal titration calorimetry; setting = 25 °C; measurement = ΔH; result = -4.3 ± 3.11 kcal/mol
SMILES = C=CCC(=N)NCCC[C@H](N)C(=O)O; target = Nitric oxide synthase 1 (Mus musculus, UniProt Q9Z0J4); system = adult mouse hippocampal slices; setting = 0.1 µM, with: EHNA 300 µM; measurement = NMDA-evoked cGMP accumulation; result = no effect
SMILES = CNc1ccccc1C(=O)O[C@H]1C[C@H](n2cnc3c(N)ncnc32)O[C@@H]1COP(=O)(O)OP(=O)(O)O; target = Unconventional myosin-Va (Gallus gallus, UniProt Q02440, D297C/G292C/I296C/S293C/V295G); assay = stopped-flow FRET; setting = 15 °C, with: MgCl2 10 mM; measurement = association rate constant; result = 2.49e+06 ± 150000 M⁻¹ s⁻¹
SMILES = O=Cc1ccc(-c2cn([C@@H]3O[C@H](COP(=O)(O)OP(=O)(O)O[C@H]4O[C@H](CO)[C@H](O)[C@H](O)[C@H]4O)[C@@H](O)[C@H]3O)c(=O)[nH]c2=O)s1; target = ABO (Homo sapiens, UniProt P16442, G268A/L266G); assay = substrate, HPLC; measurement = kcat; result = 0.024 ± 0.001 s⁻¹
SMILES = CSCC[C@H](NC(=O)[C@H](Cc1c[nH]c2ccccc12)NC(=O)[C@@H](NC(=O)[C@@H](NC(=O)[C@@H](NC(=O)[C@H](C)NC(=O)[C@@H](NC(=O)[C@H](C)NC(=O)[C@H](CCCCN)NC(=O)[C@H](CCCCN)NC(=O)[C@@H](NC(=O)[C@H](CC(N)=O)NC(=O)[C@H](CCC(=O)O)NC(=O)[C@@H](N)CCSC)C(C)C)[C@@H](C)O)[C@@H](C)O)[C@@H](C)O)[C@@H](C)O)C(=O)N[C@H](C(=O)N1CCC[C@H]1C(=O)N[C@H](C(=O)N[C@@H](C)C(=O)N[C@@H](C)C(=O)O)[C@@H](C)O)C(C)C; target = Recombining binding protein suppressor of hairless (Rbpj, Mus musculus, UniProt P31266); assay = isothermal titration calorimetry; setting = pH 6.5, 25 °C; measurement = –TΔS°; result = 5.9 ± 0.3 kcal/mol
SMILES = CCCCCCOc1ccc(C(=O)OCC[N+]2(C)CC=CCC2)cc1 (centres unmarked); target = CHRM1 (Homo sapiens, UniProt P11229); assay = recovery of [3H]NMS binding after washing; system = membranes; setting = 100 µM; measurement = dissociation half-time; result = 4.5 ± 0.4 h
SMILES = CC(=O)N[C@H]1[C@@H](OP(=O)(O)OP(=O)(O)OC[C@H]2O[C@@H](n3ccc(=O)[nH]c3=O)[C@H](O)[C@@H]2O)O[C@H](CO)[C@H](O)[C@@H]1O; target = ABO (Homo sapiens, UniProt P16442, G235S/G268A/L266M/R176G); assay = binding, NMR; measurement = kon; result = 150000 M⁻¹ s⁻¹
SMILES = CC(=O)N[C@H](CCCNC(=N)N)C(=O)N[C@@H](Cc1ccc(O)cc1)C(=O)N[C@@H](CCCNC(=N)NC(=O)NCCCCN)C(=O)N[C@@H](CC(C)C)C(=O)N[C@@H](CCCNC(=N)N)C(=O)N[C@@H](Cc1ccc(O)cc1)C(N)=O; target = NPY4R (Homo sapiens, UniProt P50391); assay = β-arrestin-2 recruitment, agonist; system = HEK293T; setting = concentration not given, unit not given; scale = relative to: 1 µM human pancreatic polypeptide; measurement = intrinsic activity; result = 0.56
SMILES = C=C1C(=O)O[C@@H]2[C@H]3C(CO)=CC(=O)C3=C(C)C[C@H](OC(=O)Cc3ccc(O)cc3)[C@@H]12; target = MAL12 (Saccharomyces cerevisiae S288c, UniProt P53341); assay = fluorescence quenching; setting = 310 K; measurement = binding free energy; result = -5.5 kcal/mol
SMILES = C[N+](C)(C)CCCCOc1ccc2cc(CN)ccc2c1; target = Primary amine oxidase, liver isozyme (Bos taurus, UniProt Q29437); assay = substrate, fluorescence; setting = pH 7.2, 30 °C; measurement = kcat; result = 0.0154 ± 0.0007 s⁻¹
SMILES = Nc1nc2cc(CC[C@H]3C[C@@H](n4ccc5c(N)ncnc54)[C@H](O)[C@@H]3O)ccc2cc1Br; target = Protein arginine N-methyltransferase 5, with WDR77 (PRMT5, Homo sapiens, UniProt O14744); assay = inhibitor, RapidFire MS; setting = with: MEP50; measurement = isomerisation rate constant k3; result = 0.00047 s⁻¹
SMILES = CCc1nc2cc3ccccc3cc2cc1C(=O)N1CCC[C@H]1C(=O)N[C@@H](C/C=C/C[C@H](NC(=O)[C@@H]1CCCN1C(=O)c1cc2cc3ccccc3cc2nc1CC)C(=O)N[C@@H](CCCCN)C(=O)NCCCN)C(=O)N[C@@H](CCCCN)C(=O)NCCCN; target = (CCUG)10 RNA; assay = SPR; measurement = residence time; result = 231 s
SMILES = N[C@@H](Cc1ccc(O)c(I)c1)C(=O)O; target = Iodotyrosine deiodinase (IYD, Thermotoga neapolitana, UniProt B9K712, F88A/W82A/Y112A); assay = binding, FMN fluorescence quenching; setting = 25 °C; measurement = Kd ratio, W82A/F88A/Y112A over wild type; result = 18 fold
SMILES = CC1=C(/C=C/C=C\C=C\C(C)=C\C=O)C(C)(C)CCC1; target = Rhodopsin (RHO, Homo sapiens, UniProt P08100, T289P); assay = pharmacological chaperone, immunostaining, nonpermeabilized cells; system = 661W; setting = 2.5 µM, 16 h; scale = relative to: untreated cells; measurement = cell surface expression; result = ~6 fold
SMILES = CCN(CC)C(=O)c1ccc(O)c(OC)c1; target = Heat shock protein HSP 90-alpha, N-terminal domain (HSP90AA1, Homo sapiens, UniProt P07900); assay = binding, ligand-observed NMR titration; setting = ligand to protein ratio 366; measurement = contrast; result = 41%
SMILES = Nc1c2ncn3c2nc[n+]1[C@@H]1O[C@H](COP(=O)(O)OP(=O)([O-])OCCOC3)[C@@H](O)[C@H]1O; target = cADPR receptor, sea urchin; assay = Ca2+ release; system = sea urchin egg homogenate; setting = concentration not given; measurement = activity; result = inactive
SMILES = CC(=O)N(CC(=O)N(C)[C@@H](C)C(=O)N(Cc1c[nH]c2cc(Cl)ccc12)[C@@H](C)C(=O)N(C)[C@@H](C)C(=O)N(CCC(C)(C)C)[C@@H](C)C(=O)N1CCNCC1)Cc1ccccc1; target = E3 ubiquitin-protein ligase Mdm2, N-terminal domain 17-125 (MDM2, Homo sapiens, UniProt Q00987); assay = isothermal titration calorimetry; system = PBS; setting = concentration not given, 25 °C; measurement = binding enthalpy; result = -7.78 kcal/mol
SMILES = CCNC(=O)[C@H]1O[C@@H](n2cnc3c(NCCCCNC(=O)CCCCCNC(=O)COc4ccc(/C=C/C5=[N+]6C(=Cc7ccc(-c8cccs8)n7[B-]6(F)F)C=C5)cc4)ncnc32)[C@H](O)[C@@H]1O; target = ADORA1 (Homo sapiens, UniProt P30542); assay = CRE reporter gene; system = CHO-A1; setting = Gi response, with: forskolin; measurement = log Kd minus log IC50; result = 2.03
SMILES = [3H]C([3H])([3H])c1cnccc1CN1C[C@@H](c2cc(F)c(F)c(F)c2)CC1=O; target = SV2A (Homo sapiens, UniProt Q7L0J3); assay = radioligand binding; system = frontal cortex P1 fraction; scale = relative to: Alzheimer disease over control; measurement = specific binding ratio; result = ~1.53 fold
SMILES = CCC(=C(c1ccc(Cl)cc1)c1ccc(OCCN(C)C)cc1)c1ccc(Cl)cc1; target = Estrogen receptor (ESR1, Homo sapiens, UniProt P03372); assay = reporter gene, agonist, yeast estrogen screen; setting = 1 µM; scale = relative to: DMSO; measurement = fold activation; result = 1.17 ± 0.07 fold
SMILES = CCCCOc1ccc(C(=O)OCCN2CC=CCC2)cc1; target = CHRM5 (Homo sapiens, UniProt P08912); assay = recovery of [3H]NMS binding after washing; system = membranes; setting = 100 µM; measurement = dissociation half-time; result = 0.3 ± 0.1 h
SMILES = CN(C)S(=O)(=O)c1ccc(S(=O)(=O)N2CCC(n3c(=O)[nH]c4ccccc43)CC2)cc1; target = mfd (Escherichia coli, UniProt P30958); assay = ITC; setting = concentration not given, with: ATP; scale = relative to: ATP Ka with over without; measurement = affinity ratio; result = 0.34
SMILES = O=P(O)(O)O[C@@H]1[C@@H](O)[C@H](O)[C@H](O)[C@H](O)[C@H]1OP(=O)(O)O; target = Inositol 1,4,5-trisphosphate-gated calcium channel ITPR1, IP3-binding core (Itpr1, Rattus norvegicus, UniProt P29994, R568Q); assay = binding, 3H-IP3 competition; setting = IP3-binding core IBC^R568Q; measurement = Hill coefficient; result = 1.1 ± 0.3
SMILES = CCNC(=O)NC1CC=C(c2cc3c(Nc4cc5ncsc5cc4F)ncnc3s2)CC1 (racemic); target = RIPK1 (Homo sapiens, UniProt Q13546); assay = enzyme activity; setting = 1 µM; scale = relative to: untreated; measurement = remaining activity; result = 95 ± 2%

Some of these lines once more:
SMILES = CCc1nc2cc3ccccc3cc2cc1C(=O)N1CCC[C@H]1C(=O)N[C@@H](C/C=C/C[C@H](NC(=O)[C@@H]1CCCN1C(=O)c1cc2cc3ccccc3cc2nc1CC)C(=O)N[C@@H](CCCCN)C(=O)NCCCN)C(=O)N[C@@H](CCCCN)C(=O)NCCCN; target = (CCUG)10 RNA; assay = SPR; measurement = residence time; result = 231 s
SMILES = CC(=O)N[C@H]1[C@@H](OP(=O)(O)OP(=O)(O)OC[C@H]2O[C@@H](n3ccc(=O)[nH]c3=O)[C@H](O)[C@@H]2O)O[C@H](CO)[C@H](O)[C@@H]1O; target = ABO (Homo sapiens, UniProt P16442, G235S/G268A/L266M/R176G); assay = binding, NMR; measurement = kon; result = 150000 M⁻¹ s⁻¹
